Measured values from different studies.
Compare with care: the assays were run in different laboratories. Numbers after ± are the reported error.
lasR: Transcriptional activator protein LasR (lasR, Pseudomonas aeruginosa, UniProt P25084)
Oprm1: Mu-type opioid receptor (Oprm1, Rattus norvegicus, UniProt P33535)
ATP5F1B/ATP5F1A/ATP synthase F(1) complex subunit gamma, mitochondrial: ATP5F1B/ATP5F1A/ATP synthase F(1) complex subunit gamma, mitochondrial (Homo sapiens, UniProt P06576+P25705+P36542)
Melanocortin receptor 3: Melanocortin receptor 3 (Mus musculus, UniProt P33033)
KCNQ3/KCNQ2: Voltage-gated potassium channel, KQT; KCNQ2(Kv7.2)/KCNQ3(Kv7.3) (KCNQ3/KCNQ2, Homo sapiens, UniProt O43525+O43526)
Gonadotropin-releasing hormone receptor: Gonadotropin-releasing hormone receptor (Rattus norvegicus, UniProt P30969)
Melanocortin receptor 5: Melanocortin receptor 5 (Mus musculus, UniProt P41149)

With `O=C(CCc1ccc(Br)cc1)N[C@H]1CCOC1=O` the EC50 was 8400 nM (lasR; reporter gene, agonist; Escherichia coli, JLD271 with LasR plasmid).
With `Cc1cc(O)cc(C)c1CC(N)C(=O)NC1CCNc2c(Cc3ccccc3)cccc21` (stereo not drawn) the EC50 was 1200 nM (Oprm1; GTPγS binding, agonist, radiometric; cell membranes).
The EC50 of `CS(=O)(=O)c1cccc(OCCCC(=O)N[C@H]2CCOC2=O)c1` is reported as 5600 nM (lasR (Pseudomonas aeruginosa, UniProt P25084, T75V); reporter gene, agonist).
With `CC(=O)N1CCCC[C@H]1C(=O)NC(C)(C)C(=O)N1CCCC[C@H]1C(=O)NC(C)(C)C(=O)NC(C)(C)C(=O)N[C@@H](CC(C)C)C(=O)NC[C@H](C)C(=O)NCC(=O)NC(C)(C)C(=O)NC(C)(C)C(=O)N1CCCC[C@H]1C(=O)NC(C)(C)C(=O)NCC(=O)N[C@@H](CC(C)C)C(=O)NC(C)(C)C(=O)N[C@@H](CC(C)C)C[N+]1=C2CCCN2CCC1` the EC50 was 0.95 ± 0.27 nM (ATP5F1B/ATP5F1A/ATP synthase F(1) complex subunit gamma, mitochondrial; ATP production, inhibitor; permeabilized MCF7).
The EC50 of `CC(=O)N[C@@H](CCCNC(=N)N)C(=O)N[C@@H](CCCNC(=N)N)C(=O)N[C@H](Cc1ccc(I)cc1)C(=O)N[C@H](C(N)=O)[C@@H](c1ccccc1)c1c[nH]c2ccccc12` is reported as 2400 nM (Melanocortin receptor 3; cAMP, agonist, AlphaScreen).
With `CC1(C(=O)O)CCCC2(C)C1CCC1(C)c3cocc3CCC12` (stereo not drawn) the EC50 was 27100 nM (Androgen receptor (Ar, Rattus norvegicus, UniProt P15207)).
For `CC(=O)N[C@@H](Cc1ccc(O)cc1)C(=O)N[C@@H](CCCNC(=N)NC(=O)NCCCCN)C(=O)N[C@@H](CC(C)C)C(=O)N[C@@H](CCCNC(=N)N)C(=O)N[C@@H](Cc1ccc(O)cc1)C(N)=O`, the EC50 was 1070 ± 520 nM (NPY4R (Homo sapiens, UniProt P50391); β-arrestin 1 recruitment, agonist; HEK293T).
With `CCCc1cc(Cc2ccccc2)cc2c1NCCC2NC(=O)C(N)Cc1c(C)cc(O)cc1C` (stereo not drawn) the EC50 was 23 nM (Oprm1; GTPγS binding, agonist, radiometric; cell membranes).
`CCCC[C@H](NC(=O)[C@H](Cc1ccccc1)NC(=O)[C@H](CCC(N)=O)NC(=O)[C@@H](NC(=O)[C@H](CCC(=O)O)NC(=O)C(C)(C)NC(=O)[C@@H](NC(=O)C(C)(C)N)C(C)C)[C@@H](C)CC)C(=O)N[C@@H](Cc1c[nH]cn1)C(=O)N[C@@H](C)C(=O)N[C@@H](CCCNC(=N)N)C(=O)N[C@@H](C)C(=O)N[C@@H](CCCCN)C(=O)N[C@@H](Cc1c[nH]c2ccccc12)C(=O)O` has an EC50 of 15 nM (PTH1R (Homo sapiens, UniProt Q03431); cAMP, agonist).
For `CC[C@H](C)[C@H](NC(=O)[C@H](CO)NC(=O)[C@H](Cc1ccc(O)cc1)NC(=O)[C@H](CC(=O)O)NC(=O)[C@H](CO)NC(=O)[C@@H](NC(=O)[C@H](Cc1ccccc1)NC(=O)[C@@H](NC(=O)CNC(=O)[C@@H]1CCCN1C(=O)[C@H](C)NC(=O)[C@@H](N)Cc1ccc(O)cc1)[C@@H](C)O)[C@@H](C)CC)C(=O)N[C@@H](C)C(=O)N[C@@H](CCSC)C(=O)N[C@@H](CC(=O)O)C(=O)N[C@@H](CCCCN)C(=O)N[C@H](C(=O)N[C@@H](CCCNC(=N)N)C(=O)N[C@@H](CCC(N)=O)C(=O)N[C@@H](CCC(N)=O)C(=O)N[C@@H](CC(=O)O)C(=O)N[C@@H](Cc1ccccc1)C(=O)N[C@H](C(=O)N[C@@H](CC(N)=O)C(=O)N[C@@H](Cc1c[nH]c2ccccc12)C(=O)N[C@@H](CC(C)C)C(=O)N[C@@H](CC(C)C)C(=O)N[C@@H](C)C(=O)N[C@@H](CCC(N)=O)C(=O)N[C@@H](CCCCN)C(=O)NCC(=O)N[C@@H](CCCCN)C(=O)N[C@@H](CCCCN)C(=O)N[C@@H](CC(N)=O)C(=O)N[C@@H](CC(=O)O)C(=O)N[C@@H](Cc1c[nH]c2ccccc12)C(=O)N[C@@H](CCCCN)C(=O)N[C@@H](Cc1c[nH]cn1)C(=O)N[C@@H](CC(N)=O)C(=O)N[C@@H](CC(C)C)C(=O)N[C@H](C(=O)N[C@@H](CCC(N)=O)C(=O)O)[C@@H](C)O)C(C)C)[C@@H](C)CC`, the EC50 was 13 nM (Gastric inhibitory polypeptide receptor (Rattus norvegicus, UniProt P43219); cAMP, agonist).
`CS(=O)(=O)c1cccc(OCCCC(=O)NC2CC3CC3C2O)c1` (stereo not drawn) gave an EC50 of over 100000 nM (lasR (Pseudomonas aeruginosa, UniProt P25084, A127W/Y93F); reporter gene, agonist; Escherichia coli lasB-lux reporter).
The EC50 of `Cc1cc(C2=CCN(CC3OCCO3)CC2)cc([N+](=O)[O-])c1N` is reported as 8130 nM (HTR2B (Homo sapiens, UniProt P41595); β-arrestin recruitment, agonist).
For `CC(=O)N1CCCC[C@H]1C(=O)NC(C)(C)C(=O)N1CCCC[C@H]1C(=O)NC(C)(C)C(=O)NC(C)(C)C(=O)N[C@@H](CC(C)C)C(=O)N[C@H](C)CC(=O)NCC(=O)NC(C)(C)C(=O)NC(C)(C)C(=O)N1CCCC[C@H]1C(=O)NC(C)(C)C(=O)NCC(=O)N[C@@H](CC(C)C)C(=O)NC(C)(C)C(=O)N[C@@H](CC(C)C)C[N+]1=C2CCCN2CCC1`, the EC50 was 2.6 ± 0.1 nM (ATP5F1B/ATP5F1A/ATP synthase F(1) complex subunit gamma, mitochondrial; ATP production, inhibitor; permeabilized MCF7).
For `O=C(CCc1ccc(C(F)(F)F)cc1)N[C@H]1CCOC1=O`, the EC50 was 140000 nM (lasR; reporter gene, agonist; PAO-JP2 pump active).
`C=C[C@]12CCC(=O)C=C1CC[C@H]1[C@@H]3CC[C@H](C(C)=O)[C@@]3(C)CC[C@@H]12` gave an EC50 of 11.3 nM (Membrane progesterone receptor epsilon (Paqr9, Mus musculus, UniProt Q6TCG2); reporter gene, agonist; Paqr9-GFP cells; 6 h).
With `CSCC[C@H](NC(=O)[C@H](CC(C)C)NC(=O)CNC(=O)[C@H](Cc1ccccc1)NC(=O)[C@H](Cc1ccccc1)NC(=O)[C@@H]1CCC(=O)N1)C(N)=O` the EC50 was 1 nM (TACR3 (Homo sapiens, UniProt P29371); β-arrestin recruitment, agonist).
`CC(=O)N[C@@H](CCCNC(=N)N)C(=O)N[C@@H](CCCNC(=N)N)C(=O)N[C@@H](C(=O)N1Cc2ccccc2C[C@H]1C(N)=O)[C@H](c1ccccc1)c1c[nH]c2ccccc12` has an EC50 of 2700 nM (Melanocortin receptor 3; cAMP, agonist, AlphaScreen).
With `CCN(Cc1ccccc1)C(=O)CCc1nc(CN2CCN(C(=O)Cc3ccc(OC)c(OC)c3)CC2)no1` the EC50 was 2560 ± 460 nM (KCNQ3/KCNQ2; ion current, opener, whole-cell patch clamp; CHO stably expressing channel; shift of activation midpoint).
The EC50 of `CCCCCCCCCC(=O)CC(=O)NC1CCCCC1=O` (stereo not drawn) is reported as over 200000 nM (lasR; reporter gene, agonist; PAO-JP2 pump active).
The EC50 of `NCCCC[C@@H](NC(=O)[C@H](Cc1c[nH]cn1)NC(=O)[C@H](CO)NC(=O)[C@H](Cc1c[nH]c2ccccc12)NC(=O)[C@H](Cc1c[nH]cn1)NC(=O)[C@@H]1CCC(=O)N1)C(=O)N[C@@H](Cc1c[nH]c2ccccc12)C(=O)N[C@@H](Cc1ccc(O)cc1)C(=O)N1CCC[C@H]1C(=O)NCC(N)=O` is reported as 1.7 ± 0.06 nM (Gonadotropin-releasing hormone receptor; inositol phosphate accumulation, agonist; HEK293 expressing Gonadotropin-releasing hormone receptor; 60 min, 37 °C, together with: 10 mM LiCl).
`C[C@@H]1NC(=O)[C@H](CC(N)=O)N2C[C@H](Cc3c[nH]c4ccccc34)NC(=O)[C@@H](CSCC2=O)NC(=O)[C@H](CCCNC(=N)N)NC(=O)[C@@H](Cc2ccccc2)NC(=O)[C@H](Cc2c[nH]cn2)NC(=O)[C@@H](NC(=O)[C@@H](N)Cc2ccc(O)cc2)CSSC[C@@H](C(=O)N[C@@H](Cc2ccc(O)cc2)C(N)=O)NC(=O)[C@H](Cc2ccccc2)NC1=O` gave an EC50 of 31 nM (Melanocortin receptor 5; reporter gene, agonist).
`Cc1cc(O)c(I)c(C)c1C[C@H](N)C(=O)N[C@H](C)C(=O)N[C@@H](Cc1ccccc1)C(=O)N[C@@H](Cc1ccccc1)C(N)=O` has an EC50 of over 500 nM (Oprd1 (Mus musculus, UniProt P32300); agonist).
The EC50 of `CCCCCCCCCC(=O)CC(=O)Nc1cccc(OC)c1` is reported as over 100000 nM (lasR; reporter gene, agonist; Escherichia coli, JLD271 with LasR plasmid).
The EC50 of `CC(C)C[C@H](NC(=O)[C@@H](CCCCN)NC(=O)[C@H](Cc1c[nH]cn1)NC(=O)[C@H](CO)NC(=O)[C@H](Cc1c[nH]c2ccccc12)NC(=O)[C@H](Cc1c[nH]cn1)NC(=O)[C@@H]1CCC(=O)N1)C(=O)N[C@@H](CCCNC(=N)N)C(=O)N1CCC[C@H]1C(=O)NCC(N)=O` is reported as 12.5 ± 1.7 nM (Gonadotropin-releasing hormone receptor; inositol phosphate accumulation, agonist; HEK293 expressing Gonadotropin-releasing hormone receptor; 60 min, 37 °C, together with: 10 mM LiCl).
The EC50 of `CCCCC/C=C\C/C=C\C/C=C\C/C=C\CCCC(=O)NC(CO)C(=O)O` (stereo in doubt) is reported as 3000 nM (KCNQ3/KCNQ2; maximal conductance, activator, two-electrode voltage clamp; Xenopus oocytes).
`O=C(Nn1c(-c2cccc(Cl)c2)nc2ccccc2c1=O)c1ccccc1` has an EC50 of 90 ± 20 nM (TRPM channel TRPM_PZQ (Schistosoma mansoni, UniProt A0A5K4F0X5)).
For `C[C@@H]1NC(=O)[C@H](CC(N)=O)NC(=O)[C@H](Cc2c[nH]c3ccccc23)NC(=O)[C@H](CCCNC(=N)N)NC(=O)[C@@H](Cc2ccccc2)NC(=O)[C@H](Cc2c[nH]cn2)NC(=O)[C@@H](NC(=O)[C@@H](N)Cc2ccc(O)cc2)CCCn2nncc2-c2cccc(c2)-c2cnnn2CCC[C@@H](C(=O)N[C@@H](Cc2ccc(O)cc2)C(N)=O)NC(=O)[C@H](Cc2ccccc2)NC1=O`, the EC50 was 80 ± 26 nM (Melanocortin receptor 5; agonist).

A few entries again:
With `Cc1cc(O)cc(C)c1CC(N)C(=O)NC1CCNc2c(Cc3ccccc3)cccc21` (stereo not drawn) the EC50 was 1200 nM (Oprm1; GTPγS binding, agonist, radiometric; cell membranes).
